Assay results gathered from unrelated publications.
Every numbered part comes from another study and shows a few of its results, in no order.
Sequence of UniProt P51812 (whole entry, looked up): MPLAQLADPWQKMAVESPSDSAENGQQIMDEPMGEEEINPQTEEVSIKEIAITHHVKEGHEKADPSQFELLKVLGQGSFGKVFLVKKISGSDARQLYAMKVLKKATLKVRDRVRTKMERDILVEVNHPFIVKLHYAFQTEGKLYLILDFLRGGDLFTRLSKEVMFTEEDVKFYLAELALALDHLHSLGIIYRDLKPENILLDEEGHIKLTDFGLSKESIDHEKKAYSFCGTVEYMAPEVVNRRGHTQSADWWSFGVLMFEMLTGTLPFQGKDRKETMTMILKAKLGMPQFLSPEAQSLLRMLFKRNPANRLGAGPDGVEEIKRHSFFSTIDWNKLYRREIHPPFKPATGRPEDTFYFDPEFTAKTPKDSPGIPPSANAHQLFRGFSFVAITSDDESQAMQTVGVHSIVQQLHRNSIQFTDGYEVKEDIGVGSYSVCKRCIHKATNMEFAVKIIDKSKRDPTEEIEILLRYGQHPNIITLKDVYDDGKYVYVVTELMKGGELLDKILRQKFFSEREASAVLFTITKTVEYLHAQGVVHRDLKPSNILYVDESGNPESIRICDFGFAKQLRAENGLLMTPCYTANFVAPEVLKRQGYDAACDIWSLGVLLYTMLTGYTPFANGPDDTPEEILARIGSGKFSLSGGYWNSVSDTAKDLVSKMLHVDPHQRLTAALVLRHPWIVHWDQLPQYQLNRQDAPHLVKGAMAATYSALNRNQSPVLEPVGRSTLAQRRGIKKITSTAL
Sequence of UniProt Q9Y2I7 (whole entry, looked up): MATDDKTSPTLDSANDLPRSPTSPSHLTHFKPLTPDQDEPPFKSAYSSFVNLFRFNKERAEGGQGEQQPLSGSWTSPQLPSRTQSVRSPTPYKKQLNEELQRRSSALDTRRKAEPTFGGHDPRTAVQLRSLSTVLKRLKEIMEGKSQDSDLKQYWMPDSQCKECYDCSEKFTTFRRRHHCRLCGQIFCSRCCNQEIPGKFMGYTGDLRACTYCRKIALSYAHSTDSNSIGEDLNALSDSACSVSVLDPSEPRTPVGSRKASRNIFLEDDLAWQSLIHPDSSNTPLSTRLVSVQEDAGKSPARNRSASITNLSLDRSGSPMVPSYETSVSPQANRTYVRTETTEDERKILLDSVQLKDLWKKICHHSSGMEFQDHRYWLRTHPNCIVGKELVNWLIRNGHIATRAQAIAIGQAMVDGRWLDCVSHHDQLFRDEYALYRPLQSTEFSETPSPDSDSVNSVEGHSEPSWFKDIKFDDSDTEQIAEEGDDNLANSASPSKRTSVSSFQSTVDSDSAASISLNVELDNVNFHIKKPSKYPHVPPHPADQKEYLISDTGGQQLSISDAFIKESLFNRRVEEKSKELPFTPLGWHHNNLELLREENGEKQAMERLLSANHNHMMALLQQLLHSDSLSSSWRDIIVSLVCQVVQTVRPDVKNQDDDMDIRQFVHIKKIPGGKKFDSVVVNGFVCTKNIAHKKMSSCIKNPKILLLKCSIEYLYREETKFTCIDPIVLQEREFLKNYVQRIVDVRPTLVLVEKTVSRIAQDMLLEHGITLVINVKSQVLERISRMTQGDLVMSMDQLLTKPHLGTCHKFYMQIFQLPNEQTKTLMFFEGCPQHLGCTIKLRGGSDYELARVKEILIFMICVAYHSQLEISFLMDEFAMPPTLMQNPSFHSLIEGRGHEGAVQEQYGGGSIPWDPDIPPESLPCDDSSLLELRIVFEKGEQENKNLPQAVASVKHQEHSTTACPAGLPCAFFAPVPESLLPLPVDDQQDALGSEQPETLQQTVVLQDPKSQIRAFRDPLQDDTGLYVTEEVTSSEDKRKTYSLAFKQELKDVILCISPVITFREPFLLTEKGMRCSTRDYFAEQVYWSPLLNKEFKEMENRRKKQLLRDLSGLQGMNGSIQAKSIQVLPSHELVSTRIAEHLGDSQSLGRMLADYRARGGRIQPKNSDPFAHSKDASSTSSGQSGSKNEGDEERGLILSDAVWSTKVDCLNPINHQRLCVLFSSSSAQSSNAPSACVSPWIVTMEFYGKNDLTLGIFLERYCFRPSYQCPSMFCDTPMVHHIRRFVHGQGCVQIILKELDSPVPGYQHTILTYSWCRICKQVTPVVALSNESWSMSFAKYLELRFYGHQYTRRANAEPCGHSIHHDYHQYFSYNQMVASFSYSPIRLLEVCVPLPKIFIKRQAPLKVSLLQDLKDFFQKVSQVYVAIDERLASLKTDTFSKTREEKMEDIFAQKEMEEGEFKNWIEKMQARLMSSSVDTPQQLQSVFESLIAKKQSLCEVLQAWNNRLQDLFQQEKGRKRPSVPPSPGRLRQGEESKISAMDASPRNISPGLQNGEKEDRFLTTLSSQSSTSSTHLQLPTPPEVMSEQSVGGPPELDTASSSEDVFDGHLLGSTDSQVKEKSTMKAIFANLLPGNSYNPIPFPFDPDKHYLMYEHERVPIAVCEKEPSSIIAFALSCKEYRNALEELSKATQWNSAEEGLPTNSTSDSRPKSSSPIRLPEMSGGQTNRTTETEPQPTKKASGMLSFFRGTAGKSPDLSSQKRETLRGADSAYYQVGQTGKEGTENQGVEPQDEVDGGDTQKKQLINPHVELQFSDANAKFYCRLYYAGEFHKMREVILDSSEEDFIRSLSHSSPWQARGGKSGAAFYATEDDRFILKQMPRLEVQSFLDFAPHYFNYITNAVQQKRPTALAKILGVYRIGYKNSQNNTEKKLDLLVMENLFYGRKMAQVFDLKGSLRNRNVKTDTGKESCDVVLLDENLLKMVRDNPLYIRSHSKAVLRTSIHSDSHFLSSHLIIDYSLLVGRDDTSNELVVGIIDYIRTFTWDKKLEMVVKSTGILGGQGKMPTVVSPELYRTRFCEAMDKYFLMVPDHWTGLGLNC
Sequence of UniProt Q00535 (whole entry, looked up): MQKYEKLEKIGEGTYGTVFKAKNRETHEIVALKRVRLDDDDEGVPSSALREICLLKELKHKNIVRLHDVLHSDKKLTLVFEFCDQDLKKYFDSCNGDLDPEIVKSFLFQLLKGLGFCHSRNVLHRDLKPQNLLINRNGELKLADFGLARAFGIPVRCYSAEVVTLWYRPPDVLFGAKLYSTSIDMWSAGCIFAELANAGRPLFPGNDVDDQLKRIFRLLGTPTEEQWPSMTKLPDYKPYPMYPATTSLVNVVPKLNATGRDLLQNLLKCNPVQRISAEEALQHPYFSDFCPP
Sequence of UniProt Q9BZL6 (whole entry, looked up): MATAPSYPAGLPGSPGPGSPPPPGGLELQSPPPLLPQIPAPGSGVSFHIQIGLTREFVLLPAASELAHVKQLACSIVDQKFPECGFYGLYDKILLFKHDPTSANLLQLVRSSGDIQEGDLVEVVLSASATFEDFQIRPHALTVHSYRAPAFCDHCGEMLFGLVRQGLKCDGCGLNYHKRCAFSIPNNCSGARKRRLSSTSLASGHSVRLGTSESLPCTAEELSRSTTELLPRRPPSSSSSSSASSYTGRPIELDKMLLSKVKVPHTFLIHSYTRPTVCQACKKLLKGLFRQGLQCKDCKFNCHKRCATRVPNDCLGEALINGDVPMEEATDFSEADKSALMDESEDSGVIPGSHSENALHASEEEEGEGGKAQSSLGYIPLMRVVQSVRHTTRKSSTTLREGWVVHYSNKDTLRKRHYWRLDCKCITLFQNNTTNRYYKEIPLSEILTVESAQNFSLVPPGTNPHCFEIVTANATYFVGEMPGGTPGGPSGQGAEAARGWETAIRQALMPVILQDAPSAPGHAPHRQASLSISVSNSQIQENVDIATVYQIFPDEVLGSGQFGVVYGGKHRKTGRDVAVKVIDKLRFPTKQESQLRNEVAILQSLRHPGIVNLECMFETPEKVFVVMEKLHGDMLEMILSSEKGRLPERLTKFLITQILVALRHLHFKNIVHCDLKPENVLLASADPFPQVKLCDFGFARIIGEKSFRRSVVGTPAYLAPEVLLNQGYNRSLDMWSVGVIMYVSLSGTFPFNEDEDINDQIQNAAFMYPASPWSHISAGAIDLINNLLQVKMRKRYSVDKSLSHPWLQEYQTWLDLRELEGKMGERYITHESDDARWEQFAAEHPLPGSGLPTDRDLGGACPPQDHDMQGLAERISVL
Sequence of UniProt Q14012 (whole entry, looked up): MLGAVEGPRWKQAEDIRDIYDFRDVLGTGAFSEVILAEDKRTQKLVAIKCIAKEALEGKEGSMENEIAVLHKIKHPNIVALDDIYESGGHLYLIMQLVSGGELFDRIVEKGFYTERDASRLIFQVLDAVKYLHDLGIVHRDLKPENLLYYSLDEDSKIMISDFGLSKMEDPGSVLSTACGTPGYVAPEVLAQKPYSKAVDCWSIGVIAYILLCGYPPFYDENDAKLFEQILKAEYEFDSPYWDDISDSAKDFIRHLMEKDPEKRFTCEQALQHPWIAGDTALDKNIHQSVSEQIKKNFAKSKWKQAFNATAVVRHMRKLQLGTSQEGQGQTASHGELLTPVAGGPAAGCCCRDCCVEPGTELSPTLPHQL
Sequence of UniProt P46663 (whole entry, looked up): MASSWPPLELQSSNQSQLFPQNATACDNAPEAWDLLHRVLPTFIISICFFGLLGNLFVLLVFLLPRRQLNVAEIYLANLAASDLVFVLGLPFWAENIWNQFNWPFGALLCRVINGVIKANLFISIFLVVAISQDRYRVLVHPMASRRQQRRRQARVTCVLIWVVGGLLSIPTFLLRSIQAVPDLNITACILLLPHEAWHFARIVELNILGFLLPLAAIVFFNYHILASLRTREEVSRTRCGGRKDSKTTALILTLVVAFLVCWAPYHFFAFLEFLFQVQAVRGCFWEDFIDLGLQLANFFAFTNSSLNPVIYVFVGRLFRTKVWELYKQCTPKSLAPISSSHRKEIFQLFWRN
Sequence of UniProt O14843 (whole entry, looked up): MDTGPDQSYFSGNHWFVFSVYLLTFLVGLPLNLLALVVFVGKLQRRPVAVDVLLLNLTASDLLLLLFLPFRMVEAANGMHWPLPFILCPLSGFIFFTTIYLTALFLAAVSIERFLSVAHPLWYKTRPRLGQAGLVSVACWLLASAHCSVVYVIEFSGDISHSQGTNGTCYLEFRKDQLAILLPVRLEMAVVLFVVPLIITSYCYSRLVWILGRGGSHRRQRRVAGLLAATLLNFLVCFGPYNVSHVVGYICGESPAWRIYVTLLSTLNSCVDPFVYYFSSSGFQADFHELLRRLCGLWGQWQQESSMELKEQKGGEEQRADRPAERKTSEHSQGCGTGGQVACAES

Set 1 — observed: binding; tested at: 1 µM
Structure (SMILES): CN1CCN(C(=O)c2ccc(NC(=O)Nc3ccc(N(C)c4ccnc(Nc5ccc(CS(C)(=O)=O)cc5)n4)cc3)cc2)CC1
The remaining binding was 100% (PIKFYVE (Homo sapiens, UniProt Q9Y2I7)).
It gave 18% for remaining binding (MINK1 (Homo sapiens, UniProt Q8N4C8); competition with immobilised ligand).
PRKD2 (Homo sapiens, UniProt Q9BZL6) — remaining binding: 100%.
DAPK2 (Homo sapiens, UniProt Q9UIK4) — remaining binding: 100%.
It gave 54% for remaining binding (CLK2 (Homo sapiens, UniProt P49760)).
The remaining binding was 59% (LATS2 (Homo sapiens, UniProt Q9NRM7)).
For HUNK (Homo sapiens, UniProt P57058): remaining binding read 35%.
For Ribosomal protein S6 kinase alpha-3, N-terminal kinase domain (RPS6KA3, Homo sapiens, UniProt P51812); competition with immobilised ligand: remaining binding read 57%.
The remaining binding was 64% (MAK (Homo sapiens, UniProt P20794)).

Set 2 — observed: enzyme activity; mode: inhibitor; tested at: 0.5 µM; baseline: control
SMILES: Cc1ccc(NC(=O)c2ccc(CN3CCN(C)CC3)cc2)cc1Nc1nccc(-c2cccnc2)n1
Cyclin-dependent kinase 5, with p35 (CDK5, Homo sapiens, UniProt Q00535) — remaining activity: 103%.
For FES (Homo sapiens, UniProt P07332): remaining activity read 101%.
EPHB3 (Homo sapiens, UniProt P54753) — remaining activity: 72.4%.
The remaining activity was 102% (CAMK1 (Homo sapiens, UniProt Q14012)).
For JAK2 (Homo sapiens, UniProt O60674): remaining activity read 97.8%.
It gave 96.3% for remaining activity (PRKCZ (Homo sapiens, UniProt Q05513)).
For EPHA2 (Homo sapiens, UniProt P29317): remaining activity read 87.1%.
The remaining activity was 103% (RPS6KB2 (Homo sapiens, UniProt Q9UBS0)).
It gave 94.4% for remaining activity (PIM1 (Homo sapiens, UniProt P11309)).
MUSK (Homo sapiens, UniProt O15146) — remaining activity: 95.7%.
It gave 105% for remaining activity (PAK1 (Homo sapiens, UniProt Q13153)).
It gave 100% for remaining activity (JAK1 (Homo sapiens, UniProt P23458)).
The remaining activity was 95.7% (IGF1R (Homo sapiens, UniProt P08069)).
For EPHA6 (Homo sapiens, UniProt Q9UF33): remaining activity read 100%.
It gave 102% for remaining activity (BRSK2 (Homo sapiens, UniProt Q8IWQ3)).
The remaining activity was 105% (ERBB2 (Homo sapiens, UniProt P04626)).
The remaining activity was 101% (RPS6KA3 (Homo sapiens, UniProt P51812)).

Set 3 — Compound: CCN(c1nc(N)c(C(=O)N=C(N)N)nc1Cl)C(C)C; observed: β-arrestin recruitment; mode: agonist; method: PRESTO-Tango; tested at: 10 µM; baseline: untreated
TAAR1 (Homo sapiens, UniProt Q96RJ0) — “fold over basal”: 0.82 fold.
It gave 0.88 for “fold over basal” (EDNRA (Homo sapiens, UniProt P25101)).
The “fold over basal” was 1.1 (GPR35 (Homo sapiens, UniProt Q9HC97)).
FFAR3 (Homo sapiens, UniProt O14843) — “fold over basal”: 0.88 fold.
For FPR1 (Homo sapiens, UniProt P21462): “fold over basal” read 1.33 fold.
MTNR1A (Homo sapiens, UniProt P48039) — “fold over basal”: 1.07.
BDKRB1 (Homo sapiens, UniProt P46663) — “fold over basal”: 1.03.

Set 4 — cell line: normal-adjacent organoid sample E; method: CellTiter-Glo; tested at: 0.1 µM; notes: replicate mean; baseline: DMSO
`CCCCN(CCCC)C(=O)CN1C[C@H](c2cc(OC)c3c(c2)OCO3)[C@@H](C(=O)O)[C@@H]1CC(C)(C)CCC` gave a viability of 104%.
`CN(C)C(=O)Cn1cc(-c2nc([C@@](C)(c3ccc(-c4cnc(N)nc4)cc3)C3CC3)no2)cn1` has a viability of 102%.
For `CN1C(=O)[C@@H](N2CCc3c(nn(Cc4ccccc4)c3Br)C2=O)COc2ccccc21`, the viability was 98%.
With `Cc1ccc(-c2cnc([C@@]3(O)CC[C@H](C(=O)O)C(C)(C)C3)s2)cc1Nc1cccc(C(F)(F)F)n1` the viability was 105%.
For `O=C(O)[C@H]1[C@H](Cn2nnc3ccccc3c2=O)CC[C@@H]1C(=O)c1ccc(OCCC2CCOCC2)cc1`, the viability was 108%.
For `COCCOc1nc(-c2ccc(Cl)nc2)nc2c1CN(C(=O)c1ncn3ccccc13)CC2`, the viability was 131%.
The viability of `CC(C)(C)OC(=O)N1CCCC1CNC1CCC(c2cc(F)ccc2F)(S(=O)(=O)c2ccc(Cl)cc2)CC1` (centres unmarked) is reported as 110%.
For `Cc1cc(C)c(-n2ccn3nc(-c4cccnc4)cc23)cc1NC(=O)c1cc(C#N)cc(S(F)(F)(F)(F)F)c1`, the viability was 106%.

Some of these lines once more (set 1):
It gave 18% for remaining binding (MINK1 (Homo sapiens, UniProt Q8N4C8); competition with immobilised ligand).
PRKD2 (Homo sapiens, UniProt Q9BZL6) — remaining binding: 100%.
DAPK2 (Homo sapiens, UniProt Q9UIK4) — remaining binding: 100%.
It gave 54% for remaining binding (CLK2 (Homo sapiens, UniProt P49760)).
The remaining binding was 59% (LATS2 (Homo sapiens, UniProt Q9NRM7)).
For HUNK (Homo sapiens, UniProt P57058): remaining binding read 35%.
For Ribosomal protein S6 kinase alpha-3, N-terminal kinase domain (RPS6KA3, Homo sapiens, UniProt P51812); competition with immobilised ligand: remaining binding read 57%.
